Results of several laboratories.
Numbered parts are unrelated; each lists some results of a single study.
Chain of UniProt Q15208 (whole entry, looked up): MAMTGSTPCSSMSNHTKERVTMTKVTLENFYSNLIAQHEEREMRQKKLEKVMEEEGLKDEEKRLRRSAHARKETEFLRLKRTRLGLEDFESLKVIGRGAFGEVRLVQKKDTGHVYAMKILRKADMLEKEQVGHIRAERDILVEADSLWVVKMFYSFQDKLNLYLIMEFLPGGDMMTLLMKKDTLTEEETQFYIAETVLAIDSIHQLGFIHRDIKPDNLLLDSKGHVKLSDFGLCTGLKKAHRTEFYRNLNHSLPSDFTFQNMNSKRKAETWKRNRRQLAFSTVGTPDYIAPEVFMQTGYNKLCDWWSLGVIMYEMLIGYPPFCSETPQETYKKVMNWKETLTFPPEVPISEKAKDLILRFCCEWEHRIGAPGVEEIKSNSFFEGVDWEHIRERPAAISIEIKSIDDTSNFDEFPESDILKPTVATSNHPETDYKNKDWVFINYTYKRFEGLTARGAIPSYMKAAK

Set 1
Target: Histone acetyltransferase KAT6A, winged helix 2, GST fusion (KAT6A, Homo sapiens, UniProt Q92794, residues 85-181)
Method: protein binding microarray
Form: double-stranded DNA, one strand shown
Medium: in vitro
Concentration: not given
Setting: 8-mer, flanks averaged, mean of 2 arrays, mostly near background
Relative to: not given
Direction: higher = stronger binding
Residues (chain): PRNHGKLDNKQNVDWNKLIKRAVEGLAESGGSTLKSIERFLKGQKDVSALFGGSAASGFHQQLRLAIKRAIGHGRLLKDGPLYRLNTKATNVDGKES
| Strand | E-score |
| --- | --- |
| CGCCGGAC | 0.148 |
| GCACAGAC | 0.155 |
| ATCCGAGG | -0.0333 |
| ATGGACCG | -0.0705 |
| ATGGCCCC | -0.0487 |
| GGAACACA | -0.145 |
| GCTACATA | -0.0519 |
| GTCCGGTA | 0.0785 |

Set 2
Target: POU, POU domain (Salpingoeca helianthica)
Method: Spec-seq
Form: double-stranded DNA, one strand shown
Medium: in vitro
Concentration: not given
Setting: whole probe, mean of replicates
Relative to: not given
Direction: lower = stronger binding
Constant ends, left off below: GAGTCGTCTCGTCAGCAC … CCGTAGAGCACTCAGGTC
Residues (chain): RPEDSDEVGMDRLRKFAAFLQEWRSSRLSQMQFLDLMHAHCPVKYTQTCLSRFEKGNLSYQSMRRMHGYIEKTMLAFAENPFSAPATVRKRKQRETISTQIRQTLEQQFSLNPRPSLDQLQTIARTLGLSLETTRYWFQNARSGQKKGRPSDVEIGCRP
| Strand | relative binding energy |
| --- | --- |
| ATGCTTAT | 0.927 ln ratio |
| ATGCGTTA | 0.838 ln ratio |
| ATGCCGCA | 1.25 ln ratio |
| ATCGCCAT | 1.11 ln ratio |
| TTAATAAT | -0.858 ln ratio |
| ATGTGAAT | 1.23 ln ratio |
| GATTTAAT | -0.265 ln ratio |
| ATGCCAAC | 1.45 ln ratio |

Set 3
Target: Fragile X messenger ribonucleoprotein 1, C-terminal low-complexity region (Fmr1, Mus musculus, UniProt P35922)
Method: RNA Bind-n-Seq
Form: RNA
Medium: in vitro
Concentration: 200 nM
Setting: whole 134-nt RNA, ends assumed
With: 150 mM LiCl
Relative to: input library
Direction: higher = stronger binding
All molecules: 7-deaza-guanosine replaces G
Constant ends, left off below: GGGAGUUCUACAGUCCGACGAUC … UGGAAUUCUCGGGUGUCAAGG
| Strand | log2 enrichment |
| --- | --- |
| GUCCUGUGCUACACAUCGUAUGUACCGAAUCAAACCCAAAUUUUUAAAUUUUUUUAAAAAAGUAUUAUGUUACGCCGUUCGGAUCUGCAC | -1.42 |
| UGGCCCUGGUGGCAUGCGGGGAGGAAGAGGUGGCCUCAUGGAUCGUGGUGGUCCCGGUGGAAUGUUCAGAGUUGGCCGUGGUGGAGACAG | -0.842 |
| AAGUCCUGUGCUACACAUCGUAUGUACCGAAUCGGGAAAAAAAGGGUGGGUUUGGGAAAGUAUUAUGUUACGCCGUUCGGAUCUGCACUU | -2.47 |
| UACCAUGGUGGAAGUUCCCGUUCUCGUAGCAGUAUUUUCCAUGCAGGAAAAAGCCAAGGACUACAUGAAAACAACAUACCUGACAAUGAA | 0.387 |
| CUCAAGUCCUGUGCUACACAUCGUAUGUACCGAAUCGGUUGGGGUUGGGGUUGGAAAGUAUUAUGUUACGCCGUUCGGAUCUGCACUUCC | -0.387 |
| AAGUCCUGUGCUACACAUCGUAUGUACCGAAUCGGCCCCGGCCCCGGGCCCCGGGGAAAGUAUUAUGUUACGCCGUUCGGAUCUGCACUU | -1.79 |
| GUCCUGUGCUACACAUCGUAUGUACCGAAUCGGUUUUUGGAAAAAAAGGAAAAAAAGGAAAGUAUUAUGUUACGCCGUUCGGAUCUGCAC | -2.1 |
| UGGUGGACCCGCAGCAGCUGGGCAUGUUCACGGAGGGCGAGCUGAUGUCGGUGGGUAUGGACACGUUCAUCCACCGCAUCGACUCCACCG | -3.12 |

Single results of other studies
| SMILES | target | test | conditions | how to read | measurement | result |
| --- | --- | --- | --- | --- | --- | --- |
| CN1CCN(c2ccc3nc(-c4c(N)c5c(F)cccc5[nH]c4=O)[nH]c3c2)CC1 | Serine/threonine-protein kinase 38 (STK38, Homo sapiens, UniProt Q15208) | enzyme activity, inhibitor | 0.5 µM | relative to: control | remaining activity | 97.1% |

For quick reference, copied from above (set 2):
| Strand | relative binding energy |
| --- | --- |
| ATGCGTTA | 0.838 ln ratio |
| ATGCCGCA | 1.25 ln ratio |
